Published values from different studies.
Every numbered part comes from another study and shows a few of its results, in no order. Positions count from the first letter of the parent shown.

Block 1
Target: Histone acetyltransferase KAT6A, winged helix 2, GST fusion (KAT6A, Homo sapiens, UniProt Q92794, residues 85-181)
Technique: protein binding microarray
Molecule type: double-stranded DNA, one strand shown
Matrix: in vitro
Concentration: not given
Setting: 8-mer, flanks averaged, mean of 2 arrays, mostly near background
Reference: not given
Direction: higher = stronger binding
Endpoint: E-score
Target sequence (chain): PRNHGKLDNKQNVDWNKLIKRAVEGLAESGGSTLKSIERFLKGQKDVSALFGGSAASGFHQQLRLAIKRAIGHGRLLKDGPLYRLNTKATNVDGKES
CCTATGGC: 0.0213
TCGTTCAA: -0.0301
AACTACTA: -0.0116
ATAGCCGC: -0.0263
GAGCGCCA: -0.0993
ACTCTGAG: -0.0679
ATCGGCTC: 0.0689
AAAGGAAA: 0.0462
ACGCGTCG: 0.0385
ACTTTGCC: -0.0176
CATTCCGA: 0.0784
CATGTGAC: -0.197
ACAAATGG: -0.115
ACAGCGCG: 0.0347
CTGACTAA: 0.0838
CTGCTCAC: 0.06
CATGCGAC: 0.115
GCACGACC: -0.131
CTTCTAGA: 0.0246
AATATAGC: 0.0913

Block 2
Target: ABI1, truncated, D143A, DHFR fusion (Arabidopsis thaliana)
Technique: DHFR PCA, deep sequencing
Matrix: yeast
Setting: methotrexate growth selection, single substitutions
With: (+)-ABA 710 µM
Reference: wild-type fitted maximum
Direction: higher = stronger binding
Endpoint: relative binding score
Starting sequence: PYL1, truncated, DHFR fusion (Arabidopsis thaliana); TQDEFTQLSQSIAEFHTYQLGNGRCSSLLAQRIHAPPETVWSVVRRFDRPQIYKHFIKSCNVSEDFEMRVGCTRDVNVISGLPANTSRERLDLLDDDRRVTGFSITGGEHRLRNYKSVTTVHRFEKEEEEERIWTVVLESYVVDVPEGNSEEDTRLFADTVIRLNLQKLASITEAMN
N85I: 103%
L28A: 83.1%
V137Q: 4.34%
E130R: 107%
E152Y: 93.5%
H34W: 92.2%
H122L: 72.7%
S26C: 104%
L166R: 0.212%
I172W: 87.4%
Q167Y: 78.2%
V136A: 87.8%
T119I: 95.2%
S63D: 107%
A158E: -1%
G21N: 96.1%
S140P: 8.4%
I105T: 98.6%
Q51M: 89.1%

Block 3
Target: CCNB2, cyclin fold, Cln2 fusion (human)
Technique: yeast growth competition, sequencing
Matrix: yeast
Setting: weak parent motif
Reference: not given
Direction: higher = stronger binding
Endpoint: normalised enrichment score
Starting sequence: CENPC docking peptide (human); VKTKKRLNFDDKV
VKTKKRLNFDAKV [D11A]: 0.722
VKTKKRLNFADKV [D10A]: -0.331
VKTKRRLNLDDKV [K5R F9L]: 0.775
VKAKKRLNFDDKV [T3A]: 0.212
VATKKRLNFDDKV [K2A]: 0.464
VKTKKALNFDDKV [R6A]: 0.345
AKTKKRLNFDDKV [V1A]: 0.267

Block 4
Target: UBE2V2 UBC core domain (UniProt Q15819)
Technique: yeast two-hybrid
Matrix: yeast
Setting: mostly zero background
Reference: not given
Direction: higher = stronger interaction
Endpoint: lacZ reporter activity
B1: VPS8 RING domain (UniProt Q8N3P4); chain TRGLNPKQDYCSICLQQYKRRQEMADEIIVFSCGHLYHSFCLQNKECTVEFEGQTRWTCYKCSSSNKVGKLSE
B2: RNF6 RING domain (UniProt Q9Y252); chain NSIDSELGKICSVCISDYVTGNKLRQLPCMHEFHIHCIDRWLSENCTCPICRQPVLGSNIAN
B3: TRIM41 RING domain (UniProt Q8WV44); chain PVQTLQEEAVCAICLDYFTDPVSIGCGHNFCRVCVTQLWGGEDEEDRDELDREEEEEDGEEE
B4: ZMYND11 RING domain (UniProt Q15326); chain DEIDWETENHDWYCFECHLPGEVLICDLCFRVYHSKCLSDEFRLRDSSSPWQCPVCRSIKKKNTNKQEM
B5: RNF182 RING domain (UniProt Q8N6D2); chain AESQASDELECKICYNRYNLKQRKPKVLECCHRVCAKCLYKIIDFGDSPQGVIVCPFCRFETCLPDDEV
B6: MARCHF1 RING domain (UniProt Q8TCQ1); chain TAPRSQSRLSVCPSTQDICRICHCEGDEESPLITPCRCTGTLRFVHQSCLHQWIKSSDTRCCELCKYDFIMETKLKPLRKWE
B7: ZNRF4 RING domain (UniProt Q8WWF5); chain VRTFTWHNDLCAICLDEYEEGDQLKILPCSHTYHCKCIDPWFSQAPRRSCPVCKQSVAATEDSF
B8: RNF103 RING domain (UniProt O00237); chain WPADMLHCTECVVCLENFENGCLLMGLPCGHVFHQNCIVMWLAGGRHCCPVCRWPSYKKKQPY
B9: RUFY1 RING domain (UniProt Q96T51); chain QALKGHAWLKDDEATHCRQCEKEFSISRRKHHCRNCGHIFCNTCSSNELALPSYPKPVRVCDSCHTLLLQRCSSTAS
B10: MKRN3 RING domain (UniProt Q13064); chain FAVQRGMDKVCGICMEVVYEKANPNDRRFGILSNCNHSFCIRCIRRWRSARQFENRIVKSCPQCRVTSELVIPSE
B11: RNF186 RING domain (UniProt Q9NXI6); chain HSGSTECDLECLVCREPYSCPRLPKLLACQHAFCAICLKLLLCVQDNTWSITCPLCRKVTAVPGGLI
B12: BFAR RING domain (UniProt Q9NZS9); chain GPQISVSEFSCHCCYDILVNPTTLNCGHSFCRHCLALWWASSKKTECPECREKWEGFPKVS
Residues (chain): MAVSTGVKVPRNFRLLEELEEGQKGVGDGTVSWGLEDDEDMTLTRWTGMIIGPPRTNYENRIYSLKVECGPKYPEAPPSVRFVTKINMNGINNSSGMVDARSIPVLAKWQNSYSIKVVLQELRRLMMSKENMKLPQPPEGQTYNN
EIKEYKARLTCPCCNTRKKDAVLTKCFHVFCFECVRGRYEARQRKCPKCNAAFGAHDFHR (RNF40 RING domain (UniProt O75150)): 0
B1 (VPS8 RING domain): 0
B2 (RNF6 RING domain): 0
B3 (TRIM41 RING domain): 0
FAEQPSVKLCCQLCCSVFKDPVITTCGHTFCRRCALKSEKCPVDNVKLTVVVNNI (TRAF7 RING domain (UniProt Q6Q0C0)): 0
B4 (ZMYND11 RING domain): 0
B5 (RNF182 RING domain): 0
B6 (MARCHF1 RING domain): 0
ASEEEFQFLRCQQCQAEAKCPKLLPCLHTLCSGCLEASGMQCPICQAPWPLGADTP (PML RING domain (UniProt P29590)): 0
B7 (ZNRF4 RING domain): 0
B8 (RNF103 RING domain): 0
LEALSSDFLACKICLEQLRAPKTLPCLHTYCQDCLAQLADGGRVRCPECRETVPVPPEGV (TRIM56 RING domain (UniProt Q9BRZ2)): 0
B9 (RUFY1 RING domain): 0
B10 (MKRN3 RING domain): 0
B11 (RNF186 RING domain): 0
FDPPLESKYECPICLMALREAVQTPCGHRFCKACIIKSIRDAGHKCPVDNEILLENQLFP (TRAF6 RING domain (UniProt Q9Y4K3)): 0
B12 (BFAR RING domain): 0

Block 5
Target: RNA binding protein fox-1 homolog 2, RRM domain, GST-SBP tag (RBFOX2, Homo sapiens, UniProt O43251-10, residues 100-194)
Technique: RNA Bind-n-Seq
Molecule type: RNA
Matrix: in vitro
Concentration: 365 nM
Setting: natural RNA segment, single round, ends assumed
Reference: no-protein control
Direction: higher = stronger binding
Endpoint: RBNS enrichment (R)
All sequences stand within: GGGAGUUCUACAGUCCGACGAUC … UGGAAUUCUCGGGUGCCAA
Construct (chain): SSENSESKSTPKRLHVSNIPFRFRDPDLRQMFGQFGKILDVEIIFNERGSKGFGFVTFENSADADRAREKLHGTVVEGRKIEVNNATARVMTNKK
AAGAAAAAAUUGUACAGGGAGUUUAGUGAAUUUUCCAUCAGGUUGGCCAUUACUUUCUUUCUCUAAAGUCUCAGGAUGUCUGGAAGCAAGGAAAGACAAAAGACUUGAAG: 0.651
GUGCAGCCACACAGGCUGCAACCUUCCACUCGCAGCCGCUGCUGACACCUGGCUGCCGACCUCACUCAGCUCACAGUGGGCUCCAGGCCCGUUUUUACUCAGACAGGGAC: 0.24
CUCUGUCCCUCCUUCCUAGAUAGGGAUGAUCAGAAGGUAGCCAUCUCUUCUUGCAGCUGCCUGGCCAGGAUCUAUGGCUUAGGAUCUAUGGCCACCCCUGCAGGGGAGCU: 0.429
UUUGGACAGCACAUAUGGUCCAUUGUGUACAAGUCAGUAAUCUGGAUUUCAGUACAUGGAUUUAAAAGGCAACAAUCCAUCACUGGUUUGUGUGUUUUUGGUUAAGUUUC: 0.832
UAGACUGUUGAAUACUGUUACUUUUAUAUAGAACCCAAGGAAUGCCUUCCUGUCAUAUUUUAGCCAAAACAACUGGUUAUAUGCCUCCCUUGCAGCAAGCACUACAAUGU: 0.651
AGCCUUUGAGAGAGAUUGAGAAAGGAGGCCCGCUUUGAGGCUAGCUGGGCUACGCGGUGAGGCCCUGUCUCACAGAGGCAGGGAGAGUGUUUUACUGGAAAAGCUGCAGU: 0.556
GAGUAGAAAUAGUCUGCUGCAAAUCCUAAACUUAAGAUCCCUGCGCUAGGUUGCUAGAGACUGCGGUUAGUGCAGAACAGAGGUAAGCCUAAGUCCCAUCCUCAUGAACU: 0.256
AAGAACUGGAAUGCGUACGUCUUUUGUGCCACCUUGUACAAAGCCGGCUGCCCAGCCCCAGCCUCACCACCGCAUCCCACCUCCUGCCCUCCAUACCUCUAGUUGUGUCU: 0.375
UUGAGAAGCUGCAGGGAGCAGGGCACCAAGGGAGUGUGCACUGUGCUUGCUCAGAGAGGCCAAACCCUGCUCCCAGGCUGAAGCCUGGAGUCUGCCCCCACUUCCCUUUU: 0.279
GAGCCAACUCUGAUGGGAGGUGAGUUUGGGGACGAGGACGAAAGGCUAAUCACUAGAUUAGAAAACACGCAAUAUGAUGCGGCCAACGGCAUGGACGACGAGGAGGACUU: 0.406
AUGAAAUAUUGUACUUUAAUUCAUUCAGGAAGCAAAUUGAGUGCCUAUAAGUGAGACACUGUGCUGCACUGGCUGAAGACUUAAUGCUGUUACUCUAGGUAGUUGGAUCC: 0.31
CUAGACCGUCUCUGCACAAAAGUUUAAAAACUGAACCGUAUGCAGAGUUCCGAAGCAAGUCAAGUUUGUAAAUGCAUACCUAAAAAUAUUUAAUAAACGAUGCAGAAUCC: 0.688

Excerpt of the above (block 5):
GAGUAGAAAUAGUCUGCUGCAAAUCCUAAACUUAAGAUCCCUGCGCUAGGUUGCUAGAGACUGCGGUUAGUGCAGAACAGAGGUAAGCCUAAGUCCCAUCCUCAUGAACU: 0.256
AAGAAAAAAUUGUACAGGGAGUUUAGUGAAUUUUCCAUCAGGUUGGCCAUUACUUUCUUUCUCUAAAGUCUCAGGAUGUCUGGAAGCAAGGAAAGACAAAAGACUUGAAG: 0.651
GAGCCAACUCUGAUGGGAGGUGAGUUUGGGGACGAGGACGAAAGGCUAAUCACUAGAUUAGAAAACACGCAAUAUGAUGCGGCCAACGGCAUGGACGACGAGGAGGACUU: 0.406
AUGAAAUAUUGUACUUUAAUUCAUUCAGGAAGCAAAUUGAGUGCCUAUAAGUGAGACACUGUGCUGCACUGGCUGAAGACUUAAUGCUGUUACUCUAGGUAGUUGGAUCC: 0.31
AGCCUUUGAGAGAGAUUGAGAAAGGAGGCCCGCUUUGAGGCUAGCUGGGCUACGCGGUGAGGCCCUGUCUCACAGAGGCAGGGAGAGUGUUUUACUGGAAAAGCUGCAGU: 0.556
UUUGGACAGCACAUAUGGUCCAUUGUGUACAAGUCAGUAAUCUGGAUUUCAGUACAUGGAUUUAAAAGGCAACAAUCCAUCACUGGUUUGUGUGUUUUUGGUUAAGUUUC: 0.832
AAGAACUGGAAUGCGUACGUCUUUUGUGCCACCUUGUACAAAGCCGGCUGCCCAGCCCCAGCCUCACCACCGCAUCCCACCUCCUGCCCUCCAUACCUCUAGUUGUGUCU: 0.375
CUCUGUCCCUCCUUCCUAGAUAGGGAUGAUCAGAAGGUAGCCAUCUCUUCUUGCAGCUGCCUGGCCAGGAUCUAUGGCUUAGGAUCUAUGGCCACCCCUGCAGGGGAGCU: 0.429
